Published values gathered from unrelated publications.
Parts stem from different laboratories: compare values within a part only.

Block 1
Target: RNA binding protein fox-1 homolog 2, RRM domain, GST-SBP tag (RBFOX2, Homo sapiens, UniProt O43251-10, residues 100-194)
Technique: RNA Bind-n-Seq
Form: RNA
Medium: in vitro
Tested at: 365 nM
Notes: natural RNA segment, single round, ends assumed
Baseline: no-protein control
Direction: higher = stronger binding
Quantity: RBNS enrichment (R)
Shared flanks, not repeated: GGGAGUUCUACAGUCCGACGAUC … UGGAAUUCUCGGGUGCCAA
Construct (chain): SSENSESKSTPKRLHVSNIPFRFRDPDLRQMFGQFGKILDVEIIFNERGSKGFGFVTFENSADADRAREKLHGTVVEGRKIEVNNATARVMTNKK
ACCUCUUGGCUGACCAAAGCUGGGACAGGGCUUUAACCAGACAUAGGAGCAGUGUGCAAUUCCUGAUUCACUGCACAGUAUUAUGUCAUAAUUGCAGGAAUUAUUUUUUG: 0.425
UCAGGAGAUUCAAAUUCUUGGCUGUUUCAGAACUCUUGAGCUCAGUCAGGCAGGGAUGUUUUUAAAGAAAUGAAUUUGAUCAUGUGGAAUCUGUUAGCUCUUAAGGCUCU: 0.229
UCUACUGGCGUUUUAAAACUGUUAAAUGUGCACAUUUUGGGUAUAGCUAUUUUCACUUGUAUGUAUAUAUUGUAUAUACAUAUAAGUGUCUGUAUGUGUGUAUAGAUGGA: 0.314
UUACUUCAUGAGAUCUUUGCUGGAAAUUAAUGAGAAGGGUCAGUGUUUGUGACUUAUGGGCUUAUUUUACAGACAAGAUGAGAGUUACCACUCUAAGAAAACAAACAGCA: 1.62
ACAUUCCAUCCUUCACCCCCUCCUCUGGCACAGGCCACCACUGCGGUGCUGUGCCUUCAGAUGGGAGGUGGGCGCGGUGGCCUCCUCCUUCCCUCCAGGACCUGCCCGUG: 1.12
CAUAACUGCUGUCCUGCCUGCUCUCCUUGGGUUUCGGUUUUAAAAGCCUUUGUGGUUGAAAUGAAUAACGAUUCGGUUUUCUGAACUGUACACAUCCUUGUUCAGUUUUC: 0.333
AGCGACAGAGUGGAUAAGUAAAAGGGCGAGGACUGGGACCCUGGUACUCUGAAUGAAGAGCCUGUGCCUCCCUCUCUCCCCUAACAGUUUUAAGGAGAUACAAUUUACCU: 1.08
UUCAUUUGAGUCUUAGCUCCCAUUUAAGUUAUGCUUCUGACCUUGUAUGGUCUGUAAGCUUGCCCAGAAAUAAGACCACUGUUUUGAACUACCACAAAAGUAUAAAUGAA: 0.549
GCUUAUUAACGUGAGCCUCCCUGUUGGUGAAAUGGUGUAGCUGGGAACGGACAGCAAAGGUGCAGGCGGUCAGGCUCCUCGCUUGGAAGACCACGGUUCUGAGCAAGUCU: 0.374
AUUUCACCCAGUGUCUUCUGCCUCCCUCUGCGUUGGUAUCUGCUACAUCCCAGGCCACCACCUCCGAGGAUGAAAAGAUGGCUGCCUGCAGCUUCCACGGAAUCCCUCCC: 0.374
GUGGCCCCACCCUCCAUUCCGGACCCCAUGGGCCCAGCCCCUGCCCAUCUAGUUGGUUUGGGGACCCUGGUGCAUGCUAGUGGGCAUGGGAUCAGCCAAGCUUCGUUCCA: 1.29
GUAGUCGUAGAAAUGGAAGACGCCAGCCCUGCGCAGCCUGCAGGGACAUCCGCCAGGCUUCCCCUCAGCAGCAGGAGCCCAGGUCACCCUGGUUAAACUGCAGUGAUACA: 0.203

Block 2
Target: Ras GTPase-activating protein-binding protein 1, RRM domain (G3BP1, Homo sapiens, UniProt Q13283)
Chain of UniProt Q13283 (whole entry, looked up): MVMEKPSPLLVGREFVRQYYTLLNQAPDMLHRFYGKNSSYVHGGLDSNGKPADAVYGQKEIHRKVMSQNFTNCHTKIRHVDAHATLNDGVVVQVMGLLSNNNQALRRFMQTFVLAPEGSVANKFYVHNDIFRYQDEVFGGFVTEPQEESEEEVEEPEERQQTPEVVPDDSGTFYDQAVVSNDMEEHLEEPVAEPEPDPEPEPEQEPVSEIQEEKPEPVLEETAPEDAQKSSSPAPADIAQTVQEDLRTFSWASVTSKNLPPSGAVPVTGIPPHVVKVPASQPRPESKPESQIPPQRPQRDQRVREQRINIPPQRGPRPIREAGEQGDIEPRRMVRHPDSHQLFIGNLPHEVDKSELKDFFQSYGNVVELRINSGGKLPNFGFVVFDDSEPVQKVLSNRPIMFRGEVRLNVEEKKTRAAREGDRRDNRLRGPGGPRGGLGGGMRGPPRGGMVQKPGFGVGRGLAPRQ
Technique: RNA Bind-n-Seq
Form: RNA
Medium: in vitro
Tested at: 1 µM
Notes: whole 134-nt RNA, ends assumed
Together with: 150 mM KCl
Baseline: input library
Direction: higher = stronger binding
Quantity: log2 enrichment
Shared flanks, not repeated: GGGAGUUCUACAGUCCGACGAUC … UGGAAUUCUCGGGUGUCAAGG
GGCAAGAGGAGGAACGACGUAGAAGAGAGGAAGAGAUGAUGAUUCGUCAACGUGAGAUGGAAGAACAAAUGAGGCGCCAAAGAGAGGAAA: -0.0631
UCCUCAAGUCCUGUGCUACACAUCGUAUGUACCGAAUCGGGGCGGCGGCGGGAAAGUAUUAUGUUACGCCGUUCGGAUCUGCACUUCCAG: -0.197
UCCUGUGCUACACAUCGUAUGUACCGAAUCGGGGUUUUUUUGGGGAAAGGGGAAAGGGGAAAGUAUUAUGUUACGCCGUUCGGAUCUGCA: 0.661
CAAGUCCUGUGCUACACAUCGUAUGUACCGAAUCGGGGAAAGGAAAGGGGAAAGGGAAAGUAUUAUGUUACGCCGUUCGGAUCUGCACUU: 0.0867
CACAGACAACACGCACCCACACAGACACAGAGGGAAGGGGUUGGGAUGGGGACAGGGUGCACAGCAGGGCGGAAAAGGACCCCAGCCCCU: -0.176
GUCCUGUGCUACACAUCGUAUGUACCGAAUCGGAAAAAGGAAAAAAAGGAAAAAAAGGAAAGUAUUAUGUUACGCCGUUCGGAUCUGCAC: -0.0457
CUCAAGUCCUGUGCUACACAUCGUAUGUACCGAAUCGGUUUGGAAAAAGGUGGAAAGUAUUAUGUUACGCCGUUCGGAUCUGCACUUCCA: -0.161
AGUCCUGUGCUACACAUCGUAUGUACCGAAUCGGGAAAAAGGGAAAAAGGAAAAAGGGAAAGUAUUAUGUUACGCCGUUCGGAUCUGCAC: -0.2
CCUGUGCUACACAUCGUAUGUACCGAAUCGGGCCCCCCGGGCCCCCCGGGGCCCCCCGGGGAAAGUAUUAUGUUACGCCGUUCGGAUCUG: -0.686
GUCCUGUGCUACACAUCGUAUGUACCGAAUCGGGUUUUUUUGGGAAAAAGGGAAAGGGAAAGUAUUAUGUUACGCCGUUCGGAUCUGCAC: -0.0885
ACCAUGCAGGUGGGCAUCUUUGGGAAGUGGGGCAAGGGGGGGAUAGGGAGGGGGGUAACACUUUGGGAACAGGUGGUCCCAGGUCGCUUC: 0.355
AAGUCCUGUGCUACACAUCGUAUGUACCGAAUCGGGAAAAAAAGGGAGGGUUUGGGAAAGUAUUAUGUUACGCCGUUCGGAUCUGCACUU: 0.439
UUGCAGCAACUGCUACCAGCCUCCCAGUCCACACAGCUGCCAUGCUCAAGUUCCCCUCAGGAGACCACCCAGUCUCGCCCUAUGCCGCCG: -0.158
AAGUCCUGUGCUACACAUCGUAUGUACCGAAUCGGGGAAAAGGGAAAAGGGAAAAGGAAAGUAUUAUGUUACGCCGUUCGGAUCUGCACU: -0.0766

Block 3
Target: UBE2B UBC core domain (UniProt P63146)
Chain of UniProt P63146 (whole entry, looked up): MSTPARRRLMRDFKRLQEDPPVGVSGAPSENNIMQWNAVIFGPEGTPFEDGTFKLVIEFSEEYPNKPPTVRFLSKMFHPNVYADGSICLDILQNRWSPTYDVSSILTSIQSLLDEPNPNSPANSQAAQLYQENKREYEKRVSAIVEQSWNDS
Technique: yeast two-hybrid
Medium: yeast
Notes: mostly zero background
Baseline: not given
Direction: higher = stronger interaction
Quantity: lacZ reporter activity
B1: TRIM74 RING domain (UniProt Q86UV6); chain SLLELEDWLQCPICLEVFKESLMLQCGHSYCKGCLVSLSYHLDTKVRCPMCWQVVDGSSSLP
B2: RNF7 RING domain (UniProt Q9UBF6); chain AICRVQVMDACLRCQAENKQEDCVVVWGECNHSFHNCCMSLWVKQNNRCPLCQQDWVVQRIGK
B3: MDM2 RING domain (UniProt Q00987); chain TQDKEESVESSLPLNAIEPCVICQGRPKNGCIVHGKTGHLMACFTCAKKLKKRNKPCPVCRQPIQMIVLTYFP
B4: CBLL1 RING domain (UniProt Q75N03); chain GEKDDTPVHFCDKCGLPIKIYGRMIPCKHVFCYDCAILHEKKGDKMCPGCSDPVQRIEQCT
B5: TRIM32 RING domain (UniProt Q13049); chain NLDALREVLECPICMESFTEEQLRPKLLHCGHTICRQCLEKLLASSINGVRCPFCSKITRITSLTQ
B6: RNF130 RING domain (UniProt Q86XS8); chain DKETDPDFDHCAVCIESYKQNDVVRILPCKHVFHKSCVDPWLSEHCTCPMCKLNILKALGIV
B7: MARCHF2 RING domain (UniProt Q9P0N8); chain RLLSTVIRALDTPSDGPFCRICHEGANGECLLSPCGCTGTLGAVHKSCLEKWLSSSNTSYCELCHTEFAVEKRPRPLTEWL
B8: ARIH1 RING domain (UniProt Q9Y4X5); chain NTRSSAQDMPCQICYLNYPNSYFTGLECGHKFCMQCWSEYLTTKIMEEGMGQTISCPAHGCDILVDDNTVM
B9: RNF17 RING domain (UniProt Q9BXT8); chain SQPWGAAEIQCTRCGRRVSRSSGHHCELQCGHAFCELCLLMTEECTTIICPDCEVATAVNTRQR
B10: RNF32 RING domain (UniProt Q9H0A6); chain VQALRRETHECSICLAPLSAAGGQRVGAGRRSREMALLSCSHVFHHACLLALEEFSVGDRPPFHACPLCRSCYQKKILEC
B11: TRIM47 RING domain (UniProt Q96LD4); chain MDGSGPFSCPICLEPLREPVTLPCGHNFCLACLGALWPHRGASGAGGPGGAARCPLCQEPFPDGLQLR
B12: RFPL3 RING domain (UniProt O75679); chain MAALFQEASSCPVCSDYLEKPMSLECGCTVCLKCINSLQKEPHGEDLLCCCCSMVSQRNKIRP
B13: RMND5B RING domain (UniProt Q96G75); chain MKCWYHSVFACPILRQQTSDSNPPIKLICGHVISRDALNKLINGGKLKCPYCPMEQNPADGK
B1 (TRIM74 RING domain): 0
FLSKVEETFQCICCQELVFRPITTVCQHNVCKDCLDRSFRAQVFSCPACRYDLGRSYAMQ (UHRF1 RING domain (UniProt Q96T88)): 0
B2 (RNF7 RING domain): 0
B3 (MDM2 RING domain): 0
B4 (CBLL1 RING domain): 0
B5 (TRIM32 RING domain): 0
B6 (RNF130 RING domain): 0
B7 (MARCHF2 RING domain): 0
B8 (ARIH1 RING domain): 0
B9 (RNF17 RING domain): 0
B10 (RNF32 RING domain): 0
SNNDLASLFECPVCFDYVLPPILQCQSGHLVCSNCRPKLTCCPTCRGPLGSIRNLA (SIAH1 RING domain (UniProt Q8IUQ4)): 0
KITELNPHLMCALCGGYFIDATTIVECLHSFCKTCIVRYLETNKYCPMCDVQVHKTRPLL (PCGF2 RING domain (UniProt P35227)): 0
B11 (TRIM47 RING domain): 0
B12 (RFPL3 RING domain): 0
B13 (RMND5B RING domain): 0

Block 4
Target: Histone acetyltransferase KAT6A, both winged helices, GST fusion (KAT6A, Homo sapiens, UniProt Q92794, residues 1-181)
Technique: protein binding microarray
Form: double-stranded DNA, one strand shown
Medium: in vitro
Tested at: not given
Notes: 8-mer, flanks averaged, mean of 2 arrays, mostly near background
Baseline: not given
Direction: higher = stronger binding
Quantity: E-score
Construct (chain): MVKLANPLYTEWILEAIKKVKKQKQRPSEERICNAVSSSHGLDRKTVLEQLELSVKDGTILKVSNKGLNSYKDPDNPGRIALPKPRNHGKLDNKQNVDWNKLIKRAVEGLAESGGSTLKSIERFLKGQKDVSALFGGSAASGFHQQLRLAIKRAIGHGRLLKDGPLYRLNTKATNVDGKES
AAAGCAGA: -0.186
CATCGACC: 0.038
CTTTTACA: -0.00615
TGCACCAA: -0.297
GAAGCTTC: -0.0879
CTACTCCA: -0.152
GCAGTGCA: -0.067
AGGGGTTG: -0.164
CTGTGGGA: -0.13
CTTCTGAA: -0.0684
CACTAGAA: -0.11
CTGGGGAC: -0.298
TAGTTCAA: -0.127
GGCCGAAC: 0.118
GTATCAAA: -0.0684
GGCAAAAC: -0.0184
ACGGCTTA: 0.274
ATGCTCGA: -0.0565
CCTCGGGC: 0.0546
CTACCTTC: -0.104
ACTGGTCG: -0.0241
CCCTTCGC: -0.0181
GCCTGAGA: -0.00955
